Measured values collected from several papers.
Every numbered part comes from another study and shows a few of its results, in no order. Changes are numbered by the printed parent chain.

Set 1 — technique: protein binding microarray; molecule type: double-stranded DNA, one strand shown; matrix: in vitro; tested at: not given; relative to: not given; reading: higher = stronger binding
Target: Histone acetyltransferase KAT6A, winged helix 2, GST fusion (KAT6A, Homo sapiens, UniProt Q92794, residues 85-181)
Setting: 8-mer, flanks averaged, mean of 2 arrays, mostly near background
Residues (chain): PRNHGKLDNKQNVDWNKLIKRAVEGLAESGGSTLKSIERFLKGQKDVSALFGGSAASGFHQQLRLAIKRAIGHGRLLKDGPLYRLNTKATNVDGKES
Sequence	E-score
CATGCTCA	-0.0867
CGTACCAC	0.0222
CTCCGAAG	0.224
CGGGAAAG	0.241
AGTAGCGG	0.159
TCTTACCA	-0.0676
TCGAAAAA	0.0947
CGCGACGA	0.178

Set 2 — target: CEP164, C-terminal peptide (human); technique: DHFR complementation, deep sequencing; matrix: yeast; relative to: wild type; reading: higher = weaker binding
Setting: single substitutions, model-inferred values
Starting sequence: PDZK1, PDZ domain 2 (human); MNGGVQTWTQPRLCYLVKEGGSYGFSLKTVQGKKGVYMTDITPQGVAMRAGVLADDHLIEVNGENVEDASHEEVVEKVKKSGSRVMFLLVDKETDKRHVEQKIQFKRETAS; partner HNRVKVYRF
Substitution	binding free energy change
G24Q	1.07 kcal/mol
K18V	0.955 kcal/mol
M48C	-0.112 kcal/mol
E19M	0.331 kcal/mol
S22Y	-0.194 kcal/mol
Y23D	1.29 kcal/mol
V74S	0.774 kcal/mol
H98E	0.0169 kcal/mol

Other studies, line by line
P1: PafA, mature enzyme, eGFP fusion (Elizabethkingia meningoseptica, UniProt Q9KJX5); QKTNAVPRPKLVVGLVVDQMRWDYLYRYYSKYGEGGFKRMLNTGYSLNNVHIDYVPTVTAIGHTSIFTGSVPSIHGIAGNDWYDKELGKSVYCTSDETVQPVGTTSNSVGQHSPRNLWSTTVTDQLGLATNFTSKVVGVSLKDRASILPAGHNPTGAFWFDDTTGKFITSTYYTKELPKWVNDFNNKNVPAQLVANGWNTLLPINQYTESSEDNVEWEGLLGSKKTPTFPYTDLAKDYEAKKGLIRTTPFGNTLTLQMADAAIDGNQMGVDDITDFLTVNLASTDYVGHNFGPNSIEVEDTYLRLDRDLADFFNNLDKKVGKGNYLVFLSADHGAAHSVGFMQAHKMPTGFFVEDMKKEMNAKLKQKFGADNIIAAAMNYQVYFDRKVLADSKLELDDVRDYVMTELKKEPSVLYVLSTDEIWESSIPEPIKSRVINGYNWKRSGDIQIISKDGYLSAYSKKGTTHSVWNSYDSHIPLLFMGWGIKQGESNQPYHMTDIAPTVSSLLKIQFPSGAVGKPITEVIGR
Substance	tested on	assay	system	setting	scale	endpoint	result
KIF4A (Homo sapiens, UniProt O95239)	GTF2E1 (Homo sapiens, UniProt P29083)	cross-linking MS	cell fractions	together with: DSSO	–	cross-linked residues	K575 to S61
P1 G243A	tungstate, free oxyanion	microfluidic competitive inhibition	in vitro, cell-free expressed	not given, derived from inhibition constants, unchanged parent 2230 nM	lower = stronger binding	oxyanion analog dissociation constant	2.13 µM
PDCD11 (Homo sapiens, UniProt Q14690)	DDX56 (Homo sapiens, UniProt Q9NY93)	cross-linking MS	–	hits only	–	interaction screen	cross-linked
NPLOC4 (Homo sapiens, UniProt Q8TAT6)	UFD1 (Homo sapiens, UniProt Q92890)	cross-linking MS	cell fractions	together with: DSSO	–	cross-linked residues	K404 to K267
NDUFS3 (Homo sapiens, UniProt O75489)	NDUFA7 (Homo sapiens, UniProt O95182)	cross-linking MS	cell fractions	together with: DMTMM	–	cross-linked residues	E63 to K80

For quick reference, copied from above (set 2):
Substitution	binding free energy change
M48C	-0.112 kcal/mol
E19M	0.331 kcal/mol
S22Y	-0.194 kcal/mol
